Published values gathered from unrelated publications.
Protocols differ between the studies behind these lines. “And” joins repeats or separate records; there may be more than shown.

O=CCNCCOn1c(=O)n(OCCNCCO)c(=O)n(OCCNCCOn2c(=O)n(OCCNCCO)c(=O)n(OCCNCCO)c2=O)c1=O  viability (HUVEC; cell growth or viability, MTT; 100 µg/mL, 24 h): 53.7%
O=C(OC[C@@]1(O)C(=O)C=C[C@H]2[C@@H]1[C@H]1C=C[C@@H]2C(=O)[C@]1(O)COC(=O)c1ccccc1)c1ccccc1  viability (K562; cell growth or viability, MTT; 50 µg/mL): 15.4%
Cc1nc(Nc2ncc(C(=O)Nc3c(C)cccc3Cl)s2)cc(N2CCN(C(=O)CCOCCNC(=O)CN)CC2)n1  viability (K562; cell growth or viability, CCK-8; 1 nM): 86% and 87% and 89%
CCOC(=O)C1CC(C)C2C=CC3CCN(C(=O)C4CCC5C=CC6(CCCN6C(=O)C(Cc6ccccc6Cl)NC(C)=O)C(=O)N54)C3C(=O)N12 (stereo not drawn)  viability (B16-F1; 180 µM, 24 h, Ena/VASP knockout, and wild type): not toxic
CCc1c(-c2ccc3[nH]ncc3c2)cnc(N)c1-c1ccc(O)cc1  viability (CHP-212 resistant sublines (heterozygous USP7 V517F); cell viability; 0.3906 µM): 106% and 104%
COc1ccc(Cn2cc(CCO[C@@H]3O[C@H]4[C@H](OC[C@H]4O)[C@H]3O)nn2)cc1  viability (CHO-K1; cytotoxicity, CellTiter-Glo; up to 30 µM, 72 h): not toxic
O=C(O)c1c(O)cc(O[C@@H]2O[C@H](CO)[C@@H](O)[C@H](O)[C@H]2O)cc1/C=C/c1ccccc1  viability (RPE; cell growth or viability, crystal violet; 50 µM, 48 h): > 50%
C=Cc1c(C)c2cc3nc(c(CC(=O)OCCOCCOCCOC)c4[nH]c(cc5nc(cc1[nH]2)C(C)=C5CC)c(C)c4C(=O)OCCOCCOCCOC)[C@@H](CCC(=O)OCCOCCOCCOC)[C@@H]3C  viability (OVCAR-5; MTT; 0.1 µM, 4 h, dark): ~20%
CCC1C=CC2CCN(C(=O)C3CCC4C=CC5(CCCN5C(=O)C(Cc5ccccc5Cl)NC(C)=O)C(=O)N43)C2C(=O)N1CC(=O)OC (stereo not drawn)  viability (B16-F1; 180 µM, 24 h, Ena/VASP knockout, and wild type): not toxic
COc1cc2c(cc1OC)-c1c(oc3c4c(cc(O)c3c1=O)OC(C)(C)C=C4)CO2  viability (K562; cell growth or viability, MTT; 100 µg/mL): 87.9%
COC1C=CC(OC(=O)C=Cc2ccccc2)C(O)C1(O)COC(=O)c1ccccc1 (single isomer, unassigned; (-))  viability (K562; cell growth or viability, MTT; 100 µg/mL): 70.9%
C=C(C)[C@H]1Cc2c(cc(O)c3c2O[C@@H]2COc4cc(OC)c(OC)cc4[C@@H]2C3=O)O1  viability (K562; cell growth or viability, MTT; 100 µg/mL): 66.9%
CO[C@H]1C=C[C@@H](OC(=O)c2ccccc2)[C@H](O)[C@@]1(O)COC(=O)c1ccccc1  viability (K562; cell growth or viability, MTT; 100 µg/mL): 75.1%
COc1cc2c(cc1OC)[C@@H]1C(=O)c3c(O)cc4c(c3O[C@@H]1CO2)C=CC(C)(C)O4  viability (K562; cell growth or viability, MTT; 100 µg/mL): 91.8%
COc1cc(N2CCN(C(=O)CN)CC2)ccc1Nc1ncc(Cl)c(Nc2ccccc2P(C)(C)=O)n1  viability (NCI-H3122; cell growth or viability, CCK-8; 10 nM, 48 h): 81% and 87%
